Measured values collected from several papers.
Every numbered part comes from another study and shows a few of its results, in no order. Changes are numbered by the printed parent chain.

Block 1
Target: UBE2A UBC core domain (UniProt P49459)
Chain of UniProt P49459 (whole entry, looked up): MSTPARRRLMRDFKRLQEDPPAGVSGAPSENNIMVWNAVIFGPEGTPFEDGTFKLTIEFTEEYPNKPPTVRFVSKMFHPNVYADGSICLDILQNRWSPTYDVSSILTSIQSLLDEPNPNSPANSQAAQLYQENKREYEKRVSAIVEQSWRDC
Technique: yeast two-hybrid
Medium: yeast
Notes: mostly zero background
Baseline: not given
Reading: higher = stronger interaction
B1: RING1 RING domain (UniProt Q06587); chain SPRSLHSELMCPICLDMLKNTMTTKECLHRFCSDCIVTALRSGNKECPTCRKKLVSKRSLR
B2: BFAR RING domain (UniProt Q9NZS9); chain GPQISVSEFSCHCCYDILVNPTTLNCGHSFCRHCLALWWASSKKTECPECREKWEGFPKVS
B3: RNF186 RING domain (UniProt Q9NXI6); chain HSGSTECDLECLVCREPYSCPRLPKLLACQHAFCAICLKLLLCVQDNTWSITCPLCRKVTAVPGGLI
B4: CNOT4 RING domain (UniProt O95628); chain MSRSPDAKEDPVECPLCMEPLEIDDINFFPCTCGYQICRFCWHRIRTDENGLCPACRKPYPED
Sequence | lacZ reporter activity
B1 (RING1 RING domain) | 0
B2 (BFAR RING domain) | 0
B3 (RNF186 RING domain) | 0
ASPKIFQKTKCSICNSALELPSVHFLCGHSFHQHCFESYSESDADCPTCLPENRKVMDMI (VPS11 RING domain (UniProt Q9H270)) | 0
B4 (CNOT4 RING domain) | 0

Block 2
Target: Phosphate system positive regulatory protein PHO4, full length, GST-tagged (PHO4, Saccharomyces cerevisiae, UniProt P07270, residues 1-312)
Technique: competition protein-binding microarray
Molecule type: double-stranded DNA, one strand shown
Medium: in vitro
Concentration: 2 µM
Notes: whole 60-bp probe, lowest competitor level
Together with: Cbf1 competitor, 0.05 µM
Reading: higher = stronger binding
Residues (chain): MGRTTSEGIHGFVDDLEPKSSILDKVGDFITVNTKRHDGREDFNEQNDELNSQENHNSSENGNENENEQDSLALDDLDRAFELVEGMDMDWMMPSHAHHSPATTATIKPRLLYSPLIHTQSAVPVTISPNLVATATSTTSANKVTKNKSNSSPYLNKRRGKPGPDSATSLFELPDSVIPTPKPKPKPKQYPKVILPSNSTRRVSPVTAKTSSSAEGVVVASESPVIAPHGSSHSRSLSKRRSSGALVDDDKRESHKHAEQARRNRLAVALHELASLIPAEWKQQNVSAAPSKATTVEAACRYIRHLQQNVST
Strand | fluorescence intensity
CATACCCAACCTTGTACTGTGGGTGAAGATATTTGTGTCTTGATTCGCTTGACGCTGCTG | 4280 a.u.
GTTGCTTGCTAATTGCATGATCAAGTTGAGCCGATGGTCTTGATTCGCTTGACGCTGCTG | 4200 a.u.
GAAAAAAAATTCTTACGCGTGAACCAAAACAAAAATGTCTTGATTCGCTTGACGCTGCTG | 6270 a.u.
CTGTGGACGAATCGGCACGCTTATTATTTAGGAGTGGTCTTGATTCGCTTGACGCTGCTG | 9140 a.u.
TGGGCCATTGGCCTTGATGTGATGAACAACAGACTTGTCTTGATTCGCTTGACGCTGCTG | 2950 a.u.
ATTGTCGCTGATAAAATCGTGATGGTCGATCAATGTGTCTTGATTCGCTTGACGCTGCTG | 5170 a.u.
GCAGGTTCATTTACCTATGTGACGGGAGCTTCCATCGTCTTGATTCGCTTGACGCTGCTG | 3170 a.u.
GGATTATTGATAGCCAACGTGCTTTGTTGGAAGACGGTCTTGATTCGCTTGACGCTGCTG | 14400 a.u.

Block 3
Target: Hepatocyte nuclear factor 3-alpha (Foxa1, Mus musculus, UniProt P35582, residues 1-468, full length assumed)
Technique: EMSA with sequencing
Molecule type: double-stranded DNA, one strand shown
Medium: in vitro
Concentration: 10 and 20 nM
Notes: whole designed probe, mean of two concentrations, ends assumed
Baseline: negative control set to 0
Reading: higher = stronger binding
Target sequence (chain): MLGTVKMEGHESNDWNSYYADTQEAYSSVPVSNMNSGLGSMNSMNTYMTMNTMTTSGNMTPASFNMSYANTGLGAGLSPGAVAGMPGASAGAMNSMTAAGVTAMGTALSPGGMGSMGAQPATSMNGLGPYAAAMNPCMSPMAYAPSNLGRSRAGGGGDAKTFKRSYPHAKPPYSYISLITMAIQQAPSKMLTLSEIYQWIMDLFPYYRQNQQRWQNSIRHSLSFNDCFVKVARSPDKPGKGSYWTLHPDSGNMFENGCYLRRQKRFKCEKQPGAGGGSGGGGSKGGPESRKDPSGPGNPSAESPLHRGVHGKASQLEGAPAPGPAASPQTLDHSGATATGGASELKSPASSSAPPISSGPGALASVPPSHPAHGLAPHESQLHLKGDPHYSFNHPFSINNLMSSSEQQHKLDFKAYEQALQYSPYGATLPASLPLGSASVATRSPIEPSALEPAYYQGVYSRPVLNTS
Strand | normalised bound fraction
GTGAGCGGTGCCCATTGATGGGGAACTGCTGCTTATTCATGAATTTTCAAATGGAAATATCTCTCCCATTATTATCCCCTTCTTGTGAGTCAGGCCCCATCTTGCAAATTTGCAGCTGAGTAATTTTACGGAACATTAGCAGCAATTAGATAATTGGTGCCCCGGATCAGCCCACCCACAGCTGTGAATGAATATGGGCTGCATGAGTGTCACCTGGTGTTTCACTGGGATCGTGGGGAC | -0.0689 ratio
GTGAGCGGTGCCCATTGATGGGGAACCTTTGCAAAGCTATGCAAATTATAAAGCAATTCATTATGGTTAAGAAAAGAGTTTTTCCCAAAGAGCTGCAAATACTCACCAGTGACACAAAGTAATCTAAGACCCAAAGATGGAACCAAAAGATAGTTCTTGTCTTTAGAGGAAGAATATCCAAGATGCATTGGACAGAACAAATAATACCCTAGTGTGTTATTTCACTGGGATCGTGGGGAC | 0.224 ratio
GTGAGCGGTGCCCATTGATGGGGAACAGCTTAAGGAAGTTCTAACGCCCCCCTCCCCTCCTTTATTTTTGAGTTGAAAGAGGGTAGAATCAAAAACAATACTGAGAGGGGTCTAAAAATGCAATCTCAGAGAGTTGCTGGTTTAGGAGGGCTGGGAGGCTATGGGAGACCATAGGCATAGAGAAAACATTCCTTCTCTGTGACTCTCGGGCGCGAGCGATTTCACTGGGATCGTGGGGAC | 0.299 ratio
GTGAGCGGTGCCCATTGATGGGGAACGGAATTCCAACCTGAGATAAGGGCAATAAGTTTACTAGCTATGAGATATTACAGATAACATTTCGTACTGATGCCTCTTTTTGGTATTATGTATATTTATTTTGGTCAGAAATATTGGATGAGTCACTAAATTGCATCATCTCAAGAAATGTTCCTGCATTTACATGTTATCCACTTAGAATTTAAAGTGGACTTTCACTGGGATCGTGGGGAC | 0.164 ratio
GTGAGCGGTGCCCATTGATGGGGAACCCCACCCCACCCTGGCCACGATGACGCAAACAGAAAACCTCAGTGCTTACAGATCCCGATCTCCCACGGTCACCAATGCTCTAGAGAGGTAAATATTTACACAGGAGCCTCTAAAGCTCATAACTCAGAGGGGAGATGCTCCCCCTGCCGCCTAGGGGCTGTAAACATTTGTTCCTGCAAGCCCTGCAGCAGATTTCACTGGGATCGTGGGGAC | 0.415 ratio
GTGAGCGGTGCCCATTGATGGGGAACTAATTGACAATAGTAGATGAGTTAGCCAGGAGACTAAATACAGGTGAAAGGATGACAGCGCTAGATCTTGACACAAATTACCTTAATGGCTGTGCAAATAGTAAGCTGGATACGATTTTTTGAAAACAAACCAAGCTAAACAATCCATTGAAGTGCTCTCTTCCATCTATACCCAGAAACAGCAATTTAGCTTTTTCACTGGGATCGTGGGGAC | 0.292 ratio
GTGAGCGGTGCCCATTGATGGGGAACATCTTCCCCCTCTTCCTTGCCCCACCAGCTCACCTTCCCGGGTTATTTGCAGATAGGAAAATAAATAAAGCCGGCATTCGTTAACCCTCTTCTGGCGCAAACTGCTGTTTGCTCTGGTCCGATGAATCATGTTTGGCGACGCCAGGCTCCGGGAGAGCAAAGCACCGTGTCAGGGCCATGATCCGGGGTGGCCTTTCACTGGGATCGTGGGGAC | 0.378 ratio
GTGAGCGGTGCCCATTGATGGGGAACCATATAAATGAATATAAATATGAATATGAATACAATCAATAGATAGACATCTGCCATCTTCTTACCACTGCCACCCATCCCAGTGACTTTTTGTAGATTACTCAGACTAAAATGTCATCATAAGATAAAAATCCATCTATATTTCTATTTGGGATCAATACTACAAAATTACTGTTACTTGTCATCCTTTGATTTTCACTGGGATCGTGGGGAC | 0.00969 ratio

Block 4
Target: Interferon regulatory factor 5, full length, phosphomimetic (IRF5, Homo sapiens, UniProt Q13568-2, residues 1-514, S451D/S453D/S456D/S462D)
Technique: protein-binding microarray
Molecule type: double-stranded DNA, one strand shown
Medium: in vitro
Concentration: 940 nM top
Notes: 60-bp whole probe
Together with: salmon DNA 0.4 mg/ml
Baseline: random background probes
Reading: higher = stronger binding
Shared flanks, not repeated: GCCTAGCAC … GTCTTGATTCGCTTGACGCTGCTG
Strand | fitted relative affinity [z-score]
TCATTATCCTATATCTGACTGTGCTAG | 0.51
GTAGGTATCCTTTTCCTTTAGTGCTAG | 0.526
GACGAGCTGAGACTGGAGACGTGCTAG | -0.668
TTAGGACTGCTTTTCCTTAAGTGCTAG | -0.237
GAAACACTAATTTTTACTTTGTGCTAG | 0.834
TTAGGTTTCCTTTTCCTTAAGTGCTAG | 2.71
TCACTCATACATCTGGGACTGTGCTAG | 0.374
TCATGTATATACTATATGACTGTGCTA | -0.203

Block 5
Target: CCND3, cyclin fold, Cln2 fusion (human)
Technique: yeast growth competition, sequencing
Medium: yeast
Notes: weak parent motif
Baseline: not given
Reading: higher = stronger binding
Starting sequence: viral docking peptide; YKVKRRLVFGADD; partner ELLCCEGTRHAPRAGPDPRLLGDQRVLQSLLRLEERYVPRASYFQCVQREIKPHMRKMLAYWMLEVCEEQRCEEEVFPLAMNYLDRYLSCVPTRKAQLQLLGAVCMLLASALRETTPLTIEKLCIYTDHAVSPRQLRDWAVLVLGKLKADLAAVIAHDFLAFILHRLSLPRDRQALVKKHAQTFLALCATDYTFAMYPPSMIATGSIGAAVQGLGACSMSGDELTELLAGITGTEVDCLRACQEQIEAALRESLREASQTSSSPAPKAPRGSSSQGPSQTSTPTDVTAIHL
Change | normalised enrichment score
YKVKRRLTFGADD [V8T] | -0.175
YKVKERLVFGADD [R5E] | 0.25
YKVARRLVFGADD [K4A] | 0.209
YKVKRRLVFGALD [D12L] | 0.168
YKVKRRLVFGKDD [A11K] | -0.204
YKVKRRLVFRADD [G10R] | 0.508
YKFKRRLVFGADD [V3F] | 0.401
YMVKRRLVFGADD [K2M] | 0.213
YKVKRRSVFGADD [L7S] | 0.561
YKIKRRLVFGADD [V3I] | 0.538
YKVKRALVFGADD [R6A] | 0.278
YKVKRRLKFGADD [V8K] | 0.853
YKVKRRLVLGADD [F9L] | 0.56
YKVKRRLVFGHDD [A11H] | 0.364
YGVKRRLVFGADD [K2G] | 0.125
YKVKRRMVFGADD [L7M] | 0.0907
YKVRRRLVFGADD [K4R] | 0.472
YKVKDRLVFGADD [R5D] | 0.0196
YKVKRRLMFGADD [V8M] | 0.148
YKVKRRLVFGWDD [A11W] | 0.437
YKVKRRLNFGADD [V8N] | -0.104
YQVKRRLVFGADD [K2Q] | 0.359
YKVKRRLVFHADD [G10H] | -0.0825
YKDKRRLVFGADD [V3D] | 0.271
YAVKRRLVFGADD [K2A] | 0.11

Excerpt of the above (block 5):
Change | normalised enrichment score
YKFKRRLVFGADD [V3F] | 0.401
YKVRRRLVFGADD [K4R] | 0.472
YKVKRRSVFGADD [L7S] | 0.561
